# Measured values from different studies.
# Compare with care: the assays were run in different laboratories. Several values in a cell are separate wells, animals, samples, runs or records. ± gives the spread as reported.
SMILES,target,assay,test system,setting,how to read,quantity,value
Fc1ccc(Nc2nc(NC3CCCCC3)c3cc(Br)ccc3n2)cc1F,β2AR/β1AR ICL1 chimera,"β-arrestin2 recruitment, antagonist, BRET",,together with: isoprenaline 1 µM,,pIC50,6.2
C[n+]1ccc(/C=N/NC(=O)c2cncc(C(=O)N/N=C/c3cc[n+](C)c4ccccc34)n2)c2ccccc21,telomeric antiparallel G-quadruplex DNA,UV melting,,"6 µM, 10 mM potassium, together with: DNA 3 µM",,delta Tm,21.3 °C
C=CC(=O)N1[C@@H](c2ccc3c(c2)OCO3)c2[nH]c3ccccc3c2C[C@H]1C(=O)N1CCN(C)CC1,human cyclin E1 N112C-3xFLAG:CDK2,"co-IP with TMT proteomics, refers to: SDHB",,"concentration not given, P21912",baseline: wild type DMSO,relative co-enrichment,146%
Cc1[nH]nc2c1N=C(c1ccccc1Cl)c1cnc(N3CCOCC3)cc1N2,"GABAA receptor muscimol site, rat",radioligand binding,brain,10 µM,,inhibition,-5%
C=CC(=O)Nc1cccc(Cn2ncc3cnc(Nc4cnn(CCOC)c4)nc32)c1,NEK2 human,"binding, KINOMEscan",,100 nM,lower = stronger binding,percent of control,100%
C=CC(=O)N1[C@H](c2ccc3c(c2)OCO3)c2[nH]c3ccccc3c2C[C@@H]1C(=O)NC,PQLC3 Cys135 human,"cysteine IA-DTB labelling, covalent inhibitor, MS-ABPP",22Rv1,"20 µM, 3 h",,inhibition,27% and 22%
CCC(=O)N(C)c1ccc(Cl)c(Cl)c1,alpha 2 adrenergic receptor,"binding, radioligand binding",,10 µM,,inhibition,< 10%
Cc1cn(CC(=O)N(CC(=O)N[C@H]2CCC[C@@H]2N(CC(=O)N[C@H]2COC[C@@H]2N(CC(=O)N[C@H]2COC[C@@H]2N(CC(=O)N[C@H]2COC[C@@H]2N(CC(=O)NCCOCCOCC(N)=O)C(=O)Cn2cnc3c(N)ncnc32)C(=O)Cn2cc(C)c(=O)[nH]c2=O)C(=O)Cn2cnc3c(N)ncnc32)C(=O)Cn2cnc3c(=O)[nH]c(N)nc32)[C@H]2CCC[C@@H]2NC(=O)CN(C(=O)Cn2cnc3c(=O)[nH]c(N)nc32)[C@H]2CCC[C@@H]2NC(=O)CN(C(=O)Cn2cc(C)c(=O)[nH]c2=O)[C@H]2COC[C@@H]2NC(=O)CN(C(=O)Cn2cnc3c(N)ncnc32)[C@H]2COC[C@@H]2NC(=O)CN(C(=O)Cn2cnc3c(=O)[nH]c(N)nc32)[C@H]2COC[C@@H]2N)c(=O)[nH]c1=O,mismatched DNA TT,"duplex formation, UV melting",,,baseline: complementary DNA,ΔTm,-19.5 °C
CC(C)(CO)Cc1cn(C2CCCN(C(=O)c3ccc4c(c3)CCOC4(C)C)CC2)nn1 (stereo not drawn),"FSP1, ancestral","resazurin reduction, inhibitor",,"pH 7.2, together with: NADH, resazurin",,IC50,6.43 ± 0.1 µM
Nc1ncc(-c2cc(-c3cnn(CC(F)(F)F)c3)ncc2F)nc1C(=O)NC1CNCC(F)C1 (stereo not drawn),CAMKK2,KINOMEscan,,1 µM,baseline: DMSO control,remaining binding,89%
c1ccc(-c2n[nH]cc2-c2ccnc3ccccc23)nc1,KNS1 (Candida albicans),"kinase binding, MIB/MS competition",Candida albicans lysate,10 µM,baseline: DMSO,log2 fold change,-0.43
NCCOc1cc(NC(=O)c2cc(OCc3cn([C@H]4O[C@@H](CO)[C@H](O)[C@@H](O)[C@@H]4O)nn3)cc(C(=O)Nc3cc(OCCN)c4ccccc4n3)n2)nc2ccccc12,human telomeric G-quadruplex DNA,FRET melting,,"1 µM, pH 7.4, together with: 60 mM potassium",,ΔTm,30 ± 1 K

# For quick reference, copied from above:
SMILES,target,assay,test system,setting,how to read,quantity,value
c1ccc(-c2n[nH]cc2-c2ccnc3ccccc23)nc1,KNS1 (Candida albicans),"kinase binding, MIB/MS competition",Candida albicans lysate,10 µM,baseline: DMSO,log2 fold change,-0.43
